Measured values of several laboratories.
Compare with care: the assays were run in different laboratories.
Target: Serine/threonine-protein kinase 36 (STK36, Homo sapiens, UniProt Q9NRP7)

| Compound | test | test system | conditions | how to read | endpoint | result |
| --- | --- | --- | --- | --- | --- | --- |
| C=CC(=O)N1CCCC(n2c(=O)c3ncccc3n(Cc3ccc(Oc4ccccc4)cc3)c2=O)C1 (centres unmarked) | cell-free assay, competition with immobilised ligand | – | 1 µM | – | remaining binding | 100% |
| CCN1CCN(Cc2ccc(C(=O)Nc3ccc(C)c(NCc4cnc5[nH]ccc5c4OC)c3)cc2C(F)(F)F)CC1 | binding, competition with immobilised ligand | – | 1 µM | – | remaining binding | 0.85% |
| CNC(=O)C1CCN(c2cc(C)c(F)cc2NC(=O)c2ccc(-c3cc(O)ccc3C)c(C)c2)CC1 | binding, competition with immobilised ligand | – | 1 µM | – | remaining binding | 100% |
| CC(C)=CC1OC(C)(C)C2C=C3C(=O)C(Cl)=CC(O)C3C3C(O)C4OC4C(=O)C132 (centres unmarked) | cell-free assay, competition with immobilised ligand | – | 10 µM | – | remaining binding | 85% |
| Nc1ncc2c(n1)-c1c([nH]c3ccc(C4=CCOCC4)cc13)CCC2 | binding, competition with immobilised ligand | – | 1 µM | – | remaining binding | 100% |
| Cc1ccc(C(=O)Nc2ccc(CN3CCN(C)CC3)c(C(F)(F)F)c2)cc1C#Cc1cnc2cccnn12 | target engagement, NanoBRET | human cells | – | – | Hill slope | 1.02 |
| COc1c(Cl)cccc1Nc1c(-c2ccncc2C#C[C@@]2(C)CCCN2C(=O)/C=C/CN(C)C)[nH]c2c1C(=O)NCC2 | binding, competition with immobilised ligand | – | 3 µM | – | remaining binding | 60% |
| C=CC(=O)N1CCc2ccc(-n3c(=O)ccc4cnc5ccc(-c6cnn(C)c6)cc5c43)cc21 | KINOMEscan | – | 1 µM | relative to: DMSO control | remaining binding | 100% |
| COc1cc(Nc2nccc(-c3cnn4nc(OC)ccc34)n2)cc(C(F)(F)F)c1 | binding, competition with immobilised ligand | – | 1 µM | – | remaining binding | 86% |
| Cc1ccc(-c2c(/C=C(\C#N)C(=O)NC(C)C)n(CCCO)c3ncnc(N)c23)cc1 | cell-free assay, competition with immobilised ligand | – | 1 µM | – | remaining binding | 100% |
| Cc1cnc2nc1Nc1cccc(c1)COC/C=C/COCc1cc(ccc1OCCN1CCOCC1)N2 | binding, competition with immobilised ligand | – | 0.1 µM | – | remaining binding | 93% |
| COc1cc(Nc2nc(C)cc(-c3cnn4nc(OC)ccc34)n2)cc(C(F)(F)F)c1 | binding, competition with immobilised ligand | – | 1 µM | – | remaining binding | 99% |
| CCN1CCN(Cc2ccc(NC(=O)c3ccc(C)c(NC(=O)c4cncc(-c5cccs5)c4)c3)cc2C(F)(F)F)CC1 | binding, competition with immobilised ligand | – | 1 µM | – | remaining binding | 0.75% |
| CNC1C[S+]2CC[S+]3CC[S+](C1)[Ru-4]321([N]=C=S)[n]2c3ccc(OC)cc3c3c4c(c5cc(F)c[n+]1c5c32)C(=O)NC4=O (centres unmarked) | KinomeScan | – | 0.1 µM | relative to: untreated | remaining binding | 100% |

Some of these lines once more:
| Compound | test | test system | conditions | how to read | endpoint | result |
| --- | --- | --- | --- | --- | --- | --- |
| CCN1CCN(Cc2ccc(C(=O)Nc3ccc(C)c(NCc4cnc5[nH]ccc5c4OC)c3)cc2C(F)(F)F)CC1 | binding, competition with immobilised ligand | – | 1 µM | – | remaining binding | 0.85% |
| CNC(=O)C1CCN(c2cc(C)c(F)cc2NC(=O)c2ccc(-c3cc(O)ccc3C)c(C)c2)CC1 | binding, competition with immobilised ligand | – | 1 µM | – | remaining binding | 100% |
